Measurements pooled from the literature.
Numbered parts are unrelated; each lists some results of a single study. Several values in a cell are separate wells, animals, samples, runs or records. Substitutions count along the parent as printed.
UniProt P51955, sequence (whole entry, looked up): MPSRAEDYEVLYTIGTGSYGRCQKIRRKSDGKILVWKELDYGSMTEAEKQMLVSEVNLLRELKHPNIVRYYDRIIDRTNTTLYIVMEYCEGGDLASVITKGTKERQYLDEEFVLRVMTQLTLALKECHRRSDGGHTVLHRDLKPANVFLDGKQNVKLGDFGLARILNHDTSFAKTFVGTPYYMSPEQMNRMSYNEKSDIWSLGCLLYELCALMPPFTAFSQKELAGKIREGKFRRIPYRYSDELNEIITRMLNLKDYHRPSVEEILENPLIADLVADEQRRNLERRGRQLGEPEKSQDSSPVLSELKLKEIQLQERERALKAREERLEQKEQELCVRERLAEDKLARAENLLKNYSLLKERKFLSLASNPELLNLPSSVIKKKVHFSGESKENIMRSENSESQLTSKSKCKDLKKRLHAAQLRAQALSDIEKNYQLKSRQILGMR
UniProt P42679, sequence (whole entry, looked up): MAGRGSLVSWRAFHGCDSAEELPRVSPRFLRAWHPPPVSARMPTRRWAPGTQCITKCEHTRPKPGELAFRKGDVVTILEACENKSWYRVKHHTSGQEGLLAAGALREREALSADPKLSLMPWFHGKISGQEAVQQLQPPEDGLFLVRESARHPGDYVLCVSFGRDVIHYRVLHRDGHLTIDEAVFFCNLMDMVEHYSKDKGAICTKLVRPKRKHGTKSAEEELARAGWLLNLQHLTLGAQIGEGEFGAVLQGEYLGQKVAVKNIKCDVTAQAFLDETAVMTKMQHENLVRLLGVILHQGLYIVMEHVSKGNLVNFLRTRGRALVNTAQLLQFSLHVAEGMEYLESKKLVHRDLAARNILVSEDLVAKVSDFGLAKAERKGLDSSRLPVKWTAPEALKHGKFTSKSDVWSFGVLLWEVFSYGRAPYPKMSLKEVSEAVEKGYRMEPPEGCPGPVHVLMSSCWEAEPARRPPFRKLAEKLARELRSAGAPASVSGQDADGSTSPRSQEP
UniProt O15146, sequence (whole entry, looked up): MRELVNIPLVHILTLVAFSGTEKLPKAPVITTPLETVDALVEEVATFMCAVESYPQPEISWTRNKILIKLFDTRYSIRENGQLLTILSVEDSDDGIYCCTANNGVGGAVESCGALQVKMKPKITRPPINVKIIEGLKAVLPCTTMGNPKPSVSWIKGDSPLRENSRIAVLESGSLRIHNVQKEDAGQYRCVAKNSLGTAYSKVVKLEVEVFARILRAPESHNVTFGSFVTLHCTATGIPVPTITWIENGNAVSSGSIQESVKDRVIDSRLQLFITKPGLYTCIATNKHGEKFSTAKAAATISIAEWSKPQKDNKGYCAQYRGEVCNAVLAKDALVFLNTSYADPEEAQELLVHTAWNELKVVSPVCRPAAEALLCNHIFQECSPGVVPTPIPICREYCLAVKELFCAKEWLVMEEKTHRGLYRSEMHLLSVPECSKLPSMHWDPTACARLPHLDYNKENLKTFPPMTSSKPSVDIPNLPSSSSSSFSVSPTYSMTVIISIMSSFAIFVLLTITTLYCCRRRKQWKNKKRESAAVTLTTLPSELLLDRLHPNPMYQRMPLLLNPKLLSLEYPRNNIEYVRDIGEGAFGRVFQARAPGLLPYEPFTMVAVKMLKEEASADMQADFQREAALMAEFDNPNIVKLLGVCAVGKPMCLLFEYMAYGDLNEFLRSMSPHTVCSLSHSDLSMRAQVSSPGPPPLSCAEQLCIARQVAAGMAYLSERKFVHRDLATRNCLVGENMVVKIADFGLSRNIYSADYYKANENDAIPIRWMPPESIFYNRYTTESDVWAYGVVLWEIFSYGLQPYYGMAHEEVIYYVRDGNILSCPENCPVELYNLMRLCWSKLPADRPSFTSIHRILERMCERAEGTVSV
UniProt Q9NY57, sequence (whole entry, looked up): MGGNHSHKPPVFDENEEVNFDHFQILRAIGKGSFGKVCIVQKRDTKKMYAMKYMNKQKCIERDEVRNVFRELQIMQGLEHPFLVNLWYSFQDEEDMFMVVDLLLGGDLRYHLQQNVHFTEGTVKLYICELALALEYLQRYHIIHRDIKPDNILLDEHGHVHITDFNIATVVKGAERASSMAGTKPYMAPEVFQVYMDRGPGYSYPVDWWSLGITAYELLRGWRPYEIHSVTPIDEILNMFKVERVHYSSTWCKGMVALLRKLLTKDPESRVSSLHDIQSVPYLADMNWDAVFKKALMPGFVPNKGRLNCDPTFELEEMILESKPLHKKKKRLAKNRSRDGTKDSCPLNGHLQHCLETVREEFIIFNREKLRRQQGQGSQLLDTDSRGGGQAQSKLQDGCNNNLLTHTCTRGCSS
UniProt Q8IYT8, sequence (whole entry, looked up): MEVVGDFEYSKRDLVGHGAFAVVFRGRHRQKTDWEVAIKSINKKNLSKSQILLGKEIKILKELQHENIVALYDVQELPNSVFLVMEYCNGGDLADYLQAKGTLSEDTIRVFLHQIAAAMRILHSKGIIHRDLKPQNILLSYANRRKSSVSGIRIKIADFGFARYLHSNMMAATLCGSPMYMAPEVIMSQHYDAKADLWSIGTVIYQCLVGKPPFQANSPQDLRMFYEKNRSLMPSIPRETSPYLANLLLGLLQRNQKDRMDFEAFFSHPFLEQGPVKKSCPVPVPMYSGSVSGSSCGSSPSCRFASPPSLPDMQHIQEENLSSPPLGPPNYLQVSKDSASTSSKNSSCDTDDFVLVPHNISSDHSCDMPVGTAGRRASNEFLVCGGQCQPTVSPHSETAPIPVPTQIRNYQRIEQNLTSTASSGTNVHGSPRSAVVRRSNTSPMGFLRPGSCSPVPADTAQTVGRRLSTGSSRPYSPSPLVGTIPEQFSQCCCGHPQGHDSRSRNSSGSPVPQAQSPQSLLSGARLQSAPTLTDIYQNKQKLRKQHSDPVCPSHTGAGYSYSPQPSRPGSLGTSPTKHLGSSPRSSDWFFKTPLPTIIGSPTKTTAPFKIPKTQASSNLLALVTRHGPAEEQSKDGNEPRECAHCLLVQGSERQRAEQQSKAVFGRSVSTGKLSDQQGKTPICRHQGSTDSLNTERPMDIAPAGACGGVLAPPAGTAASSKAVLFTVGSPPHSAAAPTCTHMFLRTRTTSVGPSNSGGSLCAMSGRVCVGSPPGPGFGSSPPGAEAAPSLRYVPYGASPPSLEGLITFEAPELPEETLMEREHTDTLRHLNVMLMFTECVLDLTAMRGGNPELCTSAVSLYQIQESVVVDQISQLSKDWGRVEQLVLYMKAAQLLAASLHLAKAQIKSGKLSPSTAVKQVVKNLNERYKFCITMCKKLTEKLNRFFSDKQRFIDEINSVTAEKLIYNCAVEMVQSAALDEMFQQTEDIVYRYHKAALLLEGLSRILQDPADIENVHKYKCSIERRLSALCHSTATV
UniProt Q9P2K8, sequence (whole entry, unmodified, looked up): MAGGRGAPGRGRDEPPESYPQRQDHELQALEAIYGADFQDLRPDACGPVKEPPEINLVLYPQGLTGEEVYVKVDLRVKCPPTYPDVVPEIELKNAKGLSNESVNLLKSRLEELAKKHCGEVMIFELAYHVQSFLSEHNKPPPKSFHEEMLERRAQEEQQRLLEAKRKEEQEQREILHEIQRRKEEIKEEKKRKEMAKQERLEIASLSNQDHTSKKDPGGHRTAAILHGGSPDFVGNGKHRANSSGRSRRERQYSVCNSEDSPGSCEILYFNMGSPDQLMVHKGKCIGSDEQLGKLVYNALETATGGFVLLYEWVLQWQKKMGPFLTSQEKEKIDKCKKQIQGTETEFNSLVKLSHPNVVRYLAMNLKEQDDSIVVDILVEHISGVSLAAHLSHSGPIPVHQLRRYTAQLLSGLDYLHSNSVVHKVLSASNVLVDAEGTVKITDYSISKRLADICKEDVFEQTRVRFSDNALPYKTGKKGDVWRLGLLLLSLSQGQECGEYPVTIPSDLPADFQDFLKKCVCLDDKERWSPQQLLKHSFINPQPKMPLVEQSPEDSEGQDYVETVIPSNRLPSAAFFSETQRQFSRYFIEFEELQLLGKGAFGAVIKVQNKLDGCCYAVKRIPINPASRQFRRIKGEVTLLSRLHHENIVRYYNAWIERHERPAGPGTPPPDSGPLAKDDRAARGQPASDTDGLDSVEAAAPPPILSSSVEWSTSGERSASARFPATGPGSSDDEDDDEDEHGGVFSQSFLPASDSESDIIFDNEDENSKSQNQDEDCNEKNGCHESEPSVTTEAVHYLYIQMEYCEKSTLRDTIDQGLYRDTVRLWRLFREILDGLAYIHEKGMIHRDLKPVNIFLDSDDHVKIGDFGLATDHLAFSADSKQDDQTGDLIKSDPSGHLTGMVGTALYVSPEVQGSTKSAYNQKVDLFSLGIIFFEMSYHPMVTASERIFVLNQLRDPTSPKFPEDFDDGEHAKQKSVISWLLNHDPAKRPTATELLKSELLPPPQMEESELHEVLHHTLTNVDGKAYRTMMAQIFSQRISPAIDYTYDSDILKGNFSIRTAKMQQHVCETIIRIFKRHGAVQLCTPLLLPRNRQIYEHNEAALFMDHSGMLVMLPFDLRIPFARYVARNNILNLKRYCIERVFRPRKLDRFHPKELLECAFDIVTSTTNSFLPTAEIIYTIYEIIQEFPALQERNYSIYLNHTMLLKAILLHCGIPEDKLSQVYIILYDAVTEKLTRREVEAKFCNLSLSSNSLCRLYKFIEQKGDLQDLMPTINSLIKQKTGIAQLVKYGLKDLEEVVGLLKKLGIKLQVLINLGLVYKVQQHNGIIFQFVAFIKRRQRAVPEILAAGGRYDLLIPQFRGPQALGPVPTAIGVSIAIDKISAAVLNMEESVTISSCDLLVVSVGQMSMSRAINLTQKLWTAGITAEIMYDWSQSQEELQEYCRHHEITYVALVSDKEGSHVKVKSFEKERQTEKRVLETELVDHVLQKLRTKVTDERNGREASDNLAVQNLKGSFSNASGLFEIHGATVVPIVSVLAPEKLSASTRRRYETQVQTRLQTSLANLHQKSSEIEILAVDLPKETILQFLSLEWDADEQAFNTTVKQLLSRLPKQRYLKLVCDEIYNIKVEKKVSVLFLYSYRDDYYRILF

Study 1 — target: tungstate, free oxyanion; technique: microfluidic competitive inhibition; sample: in vitro, cell-free expressed; tested at: not given; reading: lower = stronger binding; measurement: oxyanion analog dissociation constant
Setting: derived from inhibition constants, unchanged parent 2230 nM
Starting sequence: PafA, mature enzyme, eGFP fusion (Elizabethkingia meningoseptica, UniProt Q9KJX5); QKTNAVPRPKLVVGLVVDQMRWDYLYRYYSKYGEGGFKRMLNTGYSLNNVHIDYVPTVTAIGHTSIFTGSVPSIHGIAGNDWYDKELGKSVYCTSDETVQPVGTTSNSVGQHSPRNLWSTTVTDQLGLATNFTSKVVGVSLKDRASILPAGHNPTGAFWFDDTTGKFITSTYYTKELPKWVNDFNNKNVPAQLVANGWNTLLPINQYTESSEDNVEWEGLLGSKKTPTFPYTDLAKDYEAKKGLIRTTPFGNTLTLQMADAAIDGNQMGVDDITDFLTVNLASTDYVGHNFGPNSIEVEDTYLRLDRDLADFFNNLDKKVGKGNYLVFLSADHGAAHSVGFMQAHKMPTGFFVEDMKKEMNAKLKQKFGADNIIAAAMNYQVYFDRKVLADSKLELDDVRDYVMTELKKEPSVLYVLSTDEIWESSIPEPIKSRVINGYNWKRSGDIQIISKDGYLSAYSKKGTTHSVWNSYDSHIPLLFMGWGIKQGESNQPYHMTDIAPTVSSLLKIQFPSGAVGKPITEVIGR
Y415V: 1.28 µM
V137G: 1.25 µM
A362V: 2.66 µM
R21G: 2.86 µM
F328G: 1.58 µM
V6A: 2 µM
E429G: 1.79 µM
N153V: 2.28 µM

Study 2 — target: CCNA2, cyclin fold, Cln2 fusion (human); technique: yeast growth competition, sequencing; sample: yeast; setting: strong parent motif; baseline: not given; reading: higher = stronger binding; measurement: normalised enrichment score; starting sequence: viral docking peptide; KKAKRRLFTISDS
KKAKARLFTISDS [R5A]: 2.35
KKAKRRLFTISAS [D12A]: 3.76
KKAKARAFTISDS [R5A L7A]: 0.871
KKAKRALFTISDS [R6A]: 4.86
KKAKRRAFTISDS [L7A]: 1.07
KKAKKRLLTISDS [R5K F8L]: 0.94
KKAKRRLLTISDS [F8L]: 1.39
KKAARRLFTISDS [K4A]: 3.27

Study 3 — read-out: cell-free assay; technique: competition with immobilised ligand; tested at: 1 µM; measurement: remaining binding
SMILES: Cn1cncc1[C@@](O)(COc1ccc(C#N)cc1-c1ccc(OC(F)(F)F)cc1)c1ccc(C#N)cc1
Phosphatidylinositol 4,5-bisphosphate 3-kinase catalytic subunit alpha isoform (PIK3CA, Homo sapiens, UniProt P42336, H1047L): 100%
Serine/threonine-protein kinase Nek2 (NEK2, Homo sapiens, UniProt P51955): 95%
Casein kinase II subunit alpha (CSNK2A1, Homo sapiens, UniProt P68400): 100%
Muscle, skeletal receptor tyrosine-protein kinase (MUSK, Homo sapiens, UniProt O15146): 100%
Megakaryocyte-associated tyrosine-protein kinase (MATK, Homo sapiens, UniProt P42679): 100%
Serine/threonine-protein kinase ULK2 (ULK2, Homo sapiens, UniProt Q8IYT8): 100%
Serine/threonine-protein kinase 32B (STK32B, Homo sapiens, UniProt Q9NY57): 97%
SNF-related serine/threonine-protein kinase (SNRK, Homo sapiens, UniProt Q9NRH2): 87%
Insulin-like growth factor 1 receptor (IGF1R, Homo sapiens, UniProt P08069): 100%
TRAF2 and NCK-interacting protein kinase (TNIK, Homo sapiens, UniProt Q9UKE5): 99%
Calcium/calmodulin-dependent protein kinase type 1B (PNCK, Homo sapiens, UniProt Q6P2M8): 100%
eIF-2-alpha kinase GCN2, C-terminal kinase domain (EIF2AK4, Homo sapiens, UniProt Q9P2K8, S808G): 100%
Mitotic checkpoint serine/threonine-protein kinase BUB1 (BUB1, Homo sapiens, UniProt O43683): 98%

Mixed results
CNC(=O)c1ccc(-c2cnn3ccc(C(=O)N(C)c4ccc(Cl)c(C(=O)OC)c4)cc23)cc1
luminescence (Cryptosporidium parvum; time-kill; nanoluciferase-expressing; 3 nM, 48 h; baseline: DMSO): 120% and 102%
